# Assay results collected from several papers.
# Numbered parts are unrelated; each lists some results of a single study.
# Chain of UniProt P42681 (whole entry, looked up): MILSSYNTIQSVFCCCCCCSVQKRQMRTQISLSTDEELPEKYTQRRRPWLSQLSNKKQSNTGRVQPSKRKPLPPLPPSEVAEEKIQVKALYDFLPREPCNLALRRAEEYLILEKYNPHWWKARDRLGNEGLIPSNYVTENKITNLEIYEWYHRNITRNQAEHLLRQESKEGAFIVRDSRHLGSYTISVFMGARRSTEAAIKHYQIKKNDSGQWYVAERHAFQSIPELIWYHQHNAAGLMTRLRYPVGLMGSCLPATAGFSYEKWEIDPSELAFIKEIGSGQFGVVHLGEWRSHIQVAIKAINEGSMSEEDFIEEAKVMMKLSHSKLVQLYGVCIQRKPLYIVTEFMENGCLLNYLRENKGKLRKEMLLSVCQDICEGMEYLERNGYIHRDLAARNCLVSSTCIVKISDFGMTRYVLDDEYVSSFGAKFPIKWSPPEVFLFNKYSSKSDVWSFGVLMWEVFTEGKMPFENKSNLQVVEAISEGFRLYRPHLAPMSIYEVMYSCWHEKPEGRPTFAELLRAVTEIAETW
# Chain of UniProt Q9NWZ3 (whole entry, looked up): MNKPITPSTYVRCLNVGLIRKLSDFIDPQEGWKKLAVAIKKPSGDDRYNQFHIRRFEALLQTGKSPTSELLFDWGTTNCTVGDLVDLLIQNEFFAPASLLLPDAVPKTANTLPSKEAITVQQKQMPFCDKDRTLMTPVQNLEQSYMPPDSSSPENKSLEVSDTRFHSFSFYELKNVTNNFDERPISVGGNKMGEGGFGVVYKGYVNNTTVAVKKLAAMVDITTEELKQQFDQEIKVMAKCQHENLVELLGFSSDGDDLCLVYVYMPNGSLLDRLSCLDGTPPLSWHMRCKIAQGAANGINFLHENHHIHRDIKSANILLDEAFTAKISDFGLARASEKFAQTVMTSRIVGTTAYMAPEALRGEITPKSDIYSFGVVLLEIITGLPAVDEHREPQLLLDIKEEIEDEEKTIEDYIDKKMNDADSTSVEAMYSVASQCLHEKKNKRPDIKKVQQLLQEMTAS
# Chain of UniProt Q13233 (whole entry, looked up): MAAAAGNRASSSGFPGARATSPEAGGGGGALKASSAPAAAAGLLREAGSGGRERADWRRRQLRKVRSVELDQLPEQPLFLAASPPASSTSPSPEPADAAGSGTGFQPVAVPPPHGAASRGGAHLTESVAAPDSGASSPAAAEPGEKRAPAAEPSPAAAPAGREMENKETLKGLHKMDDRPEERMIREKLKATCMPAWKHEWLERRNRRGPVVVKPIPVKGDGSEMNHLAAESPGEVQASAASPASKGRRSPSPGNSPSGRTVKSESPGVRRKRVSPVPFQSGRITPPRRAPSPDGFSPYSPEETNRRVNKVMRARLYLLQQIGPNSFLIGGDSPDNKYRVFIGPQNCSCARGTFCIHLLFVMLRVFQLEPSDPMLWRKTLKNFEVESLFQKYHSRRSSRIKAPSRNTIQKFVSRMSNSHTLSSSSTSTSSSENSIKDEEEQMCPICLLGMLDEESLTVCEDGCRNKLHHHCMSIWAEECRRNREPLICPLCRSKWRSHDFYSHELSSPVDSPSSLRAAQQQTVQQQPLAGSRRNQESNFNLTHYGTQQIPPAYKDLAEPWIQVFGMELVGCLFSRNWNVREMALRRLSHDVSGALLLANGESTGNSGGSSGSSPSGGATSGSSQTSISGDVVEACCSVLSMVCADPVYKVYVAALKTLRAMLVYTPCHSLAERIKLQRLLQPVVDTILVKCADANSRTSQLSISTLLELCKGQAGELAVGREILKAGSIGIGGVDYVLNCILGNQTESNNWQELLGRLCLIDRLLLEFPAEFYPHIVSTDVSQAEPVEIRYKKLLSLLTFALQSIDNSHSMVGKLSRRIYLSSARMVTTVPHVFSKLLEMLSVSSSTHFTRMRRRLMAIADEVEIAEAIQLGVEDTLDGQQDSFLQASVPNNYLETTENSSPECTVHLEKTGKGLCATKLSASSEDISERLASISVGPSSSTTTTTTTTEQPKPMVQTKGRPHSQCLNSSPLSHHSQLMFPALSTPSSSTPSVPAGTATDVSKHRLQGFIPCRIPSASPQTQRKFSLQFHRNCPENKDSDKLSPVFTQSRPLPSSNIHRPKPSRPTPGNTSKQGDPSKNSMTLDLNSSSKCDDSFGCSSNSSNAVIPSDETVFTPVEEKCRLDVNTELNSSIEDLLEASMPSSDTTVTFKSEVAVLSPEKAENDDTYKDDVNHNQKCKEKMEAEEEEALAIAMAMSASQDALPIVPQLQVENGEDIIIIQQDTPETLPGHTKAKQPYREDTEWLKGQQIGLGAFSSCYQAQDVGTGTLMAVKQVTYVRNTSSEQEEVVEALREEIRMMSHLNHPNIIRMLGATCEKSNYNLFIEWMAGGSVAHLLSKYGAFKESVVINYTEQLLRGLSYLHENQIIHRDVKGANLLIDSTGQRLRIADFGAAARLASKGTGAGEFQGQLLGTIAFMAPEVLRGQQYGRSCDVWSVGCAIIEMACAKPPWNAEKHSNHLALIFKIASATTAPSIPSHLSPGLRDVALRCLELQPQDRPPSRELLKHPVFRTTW
# Chain of UniProt P42336 (whole entry, unmodified, looked up): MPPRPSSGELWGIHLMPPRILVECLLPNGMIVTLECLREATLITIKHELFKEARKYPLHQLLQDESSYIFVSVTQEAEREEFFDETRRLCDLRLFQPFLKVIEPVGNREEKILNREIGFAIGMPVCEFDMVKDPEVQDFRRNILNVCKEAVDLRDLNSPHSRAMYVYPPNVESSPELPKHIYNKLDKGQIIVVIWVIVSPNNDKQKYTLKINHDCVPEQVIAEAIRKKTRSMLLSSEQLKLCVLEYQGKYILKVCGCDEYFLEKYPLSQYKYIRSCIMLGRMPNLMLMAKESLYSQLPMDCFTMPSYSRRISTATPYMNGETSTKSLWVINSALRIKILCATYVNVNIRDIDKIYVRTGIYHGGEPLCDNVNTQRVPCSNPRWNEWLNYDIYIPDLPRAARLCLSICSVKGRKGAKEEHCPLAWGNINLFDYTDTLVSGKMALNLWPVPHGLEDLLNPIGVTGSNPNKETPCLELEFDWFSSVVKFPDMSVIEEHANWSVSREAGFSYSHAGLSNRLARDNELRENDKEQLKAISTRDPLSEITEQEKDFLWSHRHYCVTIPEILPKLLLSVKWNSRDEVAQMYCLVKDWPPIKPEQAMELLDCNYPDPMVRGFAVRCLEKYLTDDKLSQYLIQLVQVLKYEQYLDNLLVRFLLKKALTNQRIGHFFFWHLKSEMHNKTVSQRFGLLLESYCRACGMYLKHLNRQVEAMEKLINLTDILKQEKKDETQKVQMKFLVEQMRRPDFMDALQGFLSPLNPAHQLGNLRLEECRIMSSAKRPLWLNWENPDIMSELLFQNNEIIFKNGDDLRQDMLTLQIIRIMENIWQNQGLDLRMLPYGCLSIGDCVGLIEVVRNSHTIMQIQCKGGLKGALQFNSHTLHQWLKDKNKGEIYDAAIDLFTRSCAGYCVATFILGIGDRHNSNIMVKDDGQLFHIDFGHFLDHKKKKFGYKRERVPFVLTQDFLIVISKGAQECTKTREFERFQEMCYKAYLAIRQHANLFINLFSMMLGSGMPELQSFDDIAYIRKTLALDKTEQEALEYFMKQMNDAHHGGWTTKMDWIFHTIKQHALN
# Chain of UniProt O43353 (whole entry, looked up): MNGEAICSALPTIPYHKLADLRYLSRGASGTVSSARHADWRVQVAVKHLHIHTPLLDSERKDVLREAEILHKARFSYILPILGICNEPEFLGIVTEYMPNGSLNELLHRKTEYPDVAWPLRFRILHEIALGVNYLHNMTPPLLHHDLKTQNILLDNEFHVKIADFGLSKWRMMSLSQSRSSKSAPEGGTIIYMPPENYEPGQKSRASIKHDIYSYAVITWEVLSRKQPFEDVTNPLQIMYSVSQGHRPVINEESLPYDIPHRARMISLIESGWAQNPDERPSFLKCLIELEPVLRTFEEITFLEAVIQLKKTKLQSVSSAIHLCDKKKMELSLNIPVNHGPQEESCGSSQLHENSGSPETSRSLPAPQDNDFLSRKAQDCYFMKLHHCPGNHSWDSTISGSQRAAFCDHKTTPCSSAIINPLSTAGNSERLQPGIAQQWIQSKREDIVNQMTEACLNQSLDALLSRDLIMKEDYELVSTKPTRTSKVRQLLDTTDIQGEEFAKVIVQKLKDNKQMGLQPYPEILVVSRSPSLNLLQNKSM
# Chain of UniProt P41240 (whole entry, looked up): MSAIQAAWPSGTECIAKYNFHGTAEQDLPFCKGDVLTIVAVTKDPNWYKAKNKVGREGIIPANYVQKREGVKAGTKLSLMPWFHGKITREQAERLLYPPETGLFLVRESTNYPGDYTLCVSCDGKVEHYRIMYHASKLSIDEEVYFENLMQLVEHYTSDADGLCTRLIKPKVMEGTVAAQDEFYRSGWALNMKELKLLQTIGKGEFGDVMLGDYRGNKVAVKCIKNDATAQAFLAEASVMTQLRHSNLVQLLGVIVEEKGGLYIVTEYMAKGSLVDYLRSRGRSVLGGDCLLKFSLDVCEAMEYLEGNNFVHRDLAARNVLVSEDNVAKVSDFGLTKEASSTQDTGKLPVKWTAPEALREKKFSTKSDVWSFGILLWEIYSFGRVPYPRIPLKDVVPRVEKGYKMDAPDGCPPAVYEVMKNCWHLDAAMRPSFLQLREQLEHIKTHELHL

# Sample 1
# Target: Serine/threonine-protein kinase 4 (STK4, Homo sapiens, UniProt Q13043)
# Chain of UniProt Q13043 (whole entry, looked up): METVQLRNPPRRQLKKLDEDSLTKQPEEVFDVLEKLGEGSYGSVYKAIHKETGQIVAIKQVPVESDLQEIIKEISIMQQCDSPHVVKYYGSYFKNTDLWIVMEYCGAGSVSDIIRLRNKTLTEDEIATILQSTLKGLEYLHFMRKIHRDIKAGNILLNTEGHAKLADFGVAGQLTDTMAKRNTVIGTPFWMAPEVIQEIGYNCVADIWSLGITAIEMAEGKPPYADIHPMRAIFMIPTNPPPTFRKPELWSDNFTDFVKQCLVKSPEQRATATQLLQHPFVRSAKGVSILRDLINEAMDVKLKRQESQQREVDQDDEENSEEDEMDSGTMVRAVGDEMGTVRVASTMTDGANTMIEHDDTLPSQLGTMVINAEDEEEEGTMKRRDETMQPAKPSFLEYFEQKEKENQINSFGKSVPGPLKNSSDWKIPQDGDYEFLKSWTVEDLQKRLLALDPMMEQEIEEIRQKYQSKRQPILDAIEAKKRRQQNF
# Observed: enzyme activity
# Action: inhibitor
# Tested at: 0.5 µM
# Relative to: control
Structure (SMILES),remaining activity [%]
CCc1[nH]c(-c2ccc(OC)cc2)nc1-c1ccncc1,106
CC(=O)c1ccc(N2CCOCC2)cc1O,102
CCCC(=O)Oc1ccc2[nH]c(C(=O)c3cc4ccccc4[nH]3)cc2c1,96.8
NC(=O)c1ccc(N(C(N)=O)c2c(F)cccc2F)nc1-c1ccc(F)cc1F,101
Nc1nc(Nc2ccc(S(N)(=O)=O)cc2)nn1C(=O)c1c(F)cccc1F,19.9
O=C1NC(=O)C(c2c[nH]c3ccccc23)=C1c1c[nH]c2ccccc12,61.8
N#CC(=C(N)Sc1ccc(N)cc1)c1ccccc1C(F)(F)F,89.7
COc1ccc(S(=O)(=O)N(CCO)c2ccccc2CN(C)CC=Cc2ccc(Cl)cc2)cc1,94.2
Nc1ncnc2c1cnn2-c1ccccc1,96.8
CSc1nc(-c2ccnc(N[C@@H](C)c3ccccc3)c2)c(-c2ccc(F)cc2)[nH]1 (racemic),89.8
Cc1cncc2cccc(S(=O)(=O)N3CCCN(C(=O)CN)C[C@@H]3C)c12,95.4
Cc1ccc(NC2=CC(=O)c3sc(C)nc3C2=O)cc1,93.5
O=S(=O)(NCCNC/C=C/c1ccc(Br)cc1)c1cccc2cnccc12,92.6

# Sample 2
# Compound: CO[C@@H](C)c1c(Nc2ccc([C@@H](N(C)C(=O)C3CCS(=O)(=O)CC3)C(F)(F)F)cc2)cnc2cc(Cl)nn12
# Method: competition with immobilised ligand
# Tested at: 1 µM
target,assay,remaining binding [%]
"NEK11 (Homo sapiens, UniProt Q8NG66)",cell-free assay,100
"PIK3CA (Homo sapiens, UniProt P42336, E545A)",cell-free assay,77
"CSK (Homo sapiens, UniProt P41240)",cell-free assay,100
"MAP3K1 (Homo sapiens, UniProt Q13233)",cell-free assay,96
"RIPK2 (Homo sapiens, UniProt O43353)",cell-free assay,83
"TXK (Homo sapiens, UniProt P42681)",binding,84
"IRAK4 (Homo sapiens, UniProt Q9NWZ3)",cell-free assay,89
"PDPK1 (Homo sapiens, UniProt O15530)",cell-free assay,97
"MAP4K5 (Homo sapiens, UniProt Q9Y4K4)",cell-free assay,100

# Sample 3
# Compound: CC(C)n1cnc(-c2ccc(F)cc2)c1-c1ncc(C(=O)Nc2ccc(N3CCN(C)CC3)cc2)[nH]1
assay,system,conditions,patients with adverse event [%]
"measured: prostatic calcification, maximum grade 4",idiopathic pulmonary fibrosis patients,"oral, 30 mg once daily",0
"Phase 2a trial, measured: blood fibrinogen increased","human, idiopathic pulmonary fibrosis","30 mg once daily, grade 5",0
"measured: abnormal liver function test, grade 2",idiopathic pulmonary fibrosis patients,"oral, 30 mg once daily",0
"Phase 2a trial, measured: haemorrhoids","human, idiopathic pulmonary fibrosis","30 mg once daily, grade 2",0
"Phase 2a trial, measured: hepatic steatosis","human, idiopathic pulmonary fibrosis","30 mg once daily, grade 2",0
"measured: prostatic calcification, maximum grade 5",idiopathic pulmonary fibrosis patients,"dose not given, all compound arms pooled",0
"Phase 2a trial, measured: hyperuricaemia","human, idiopathic pulmonary fibrosis","60 mg once daily, grade 2",0
"Phase 2a trial, measured: hypocalcaemia","human, idiopathic pulmonary fibrosis","30 mg once daily, grade 4",0
"Phase 2a trial, measured: haemoptysis","human, idiopathic pulmonary fibrosis","60 mg once daily, grade 5",0
"Phase 2a trial, measured: haemorrhoids","human, idiopathic pulmonary fibrosis","30 mg once daily, grade 3",0
"Phase 2a trial, measured: blood pressure increased","human, idiopathic pulmonary fibrosis","all compound arms total, grade 3",0

# Sample 4
# Structure (SMILES): COc1cc(C(=O)N2CCC(N3CCN(C)CC3)CC2)ccc1Nc1ncc2c(n1)N(C)c1ccccc1C(=O)N2C
tested on,assay,system,conditions,inhibition
"Lyn (Mus musculus, UniProt P25911)","enzyme activity, inhibitor",,0.1 µM,-7.6%
human PBMC,"probe labeling, inhibitor, KiNativ profiling, measured: DIkSQNIFLTK",cell lysate,"1 µM, LYS2 site, with: ATP acyl-phosphate probe",-2.9%
NDR2 (human),"probe labelling, KiNativ ATP probe",human PBMC lysate,"concentration not given, LYS1 labelled site",9.1%
SLK mouse,KiNativ profiling,mouse brain lysate,"0.1 µM, LYS1 site, with: ATP acyl phosphate probe",2%
human PBMC,"probe labeling, inhibitor, KiNativ profiling",cell lysate,"concentration not given, domain 1, DFG motif site, with: ATP acyl-phosphate probe 0.1 µM",-4.9%
PKCe (mouse),"probe labelling, KiNativ, measured: LYS1 site peptide",brain tissue lysate (mouse),"0.1 µM, with: ADP acyl-phosphate probe",6.1%
